{"data": "Results gathered from unrelated publications", "note": "Numbered parts are unrelated; each lists some results of a single study."}
{"data": "Set 1", "target": "Fragile X messenger ribonucleoprotein 1, C-terminal low-complexity region (Fmr1, Mus musculus, UniProt P35922)", "method": "RNA Bind-n-Seq", "form": "RNA", "sample": "in vitro", "concentration": "200 nM", "notes": "whole 134-nt RNA, ends assumed", "with": "150 mM LiCl", "reference": "input library", "reading": "higher = stronger binding", "each molecule": "7-deaza-guanosine replaces G"}
{"Oligonucleotide": "GGGAGUUCUACAGUCCGACGAUCAGUCCUGUGCUACACAUCGUAUGUACCGAAUCAAACCCAAACCCCCCCAAACCCAAAAAAGUAUUAUGUUACGCCGUUCGGAUCUGCACUUGGAAUUCUCGGGUGUCAAGG", "log2 enrichment": 0.473}
{"Oligonucleotide": "GGGAGUUCUACAGUCCGACGAUCCAAGUCCUGUGCUACACAUCGUAUGUACCGAAUCGGGUUUUUGGGUGGGAAAGGGAAAGUAUUAUGUUACGCCGUUCGGAUCUGCACUUCUGGAAUUCUCGGGUGUCAAGG", "log2 enrichment": -0.875}
{"Oligonucleotide": "GGGAGUUCUACAGUCCGACGAUCUCCUCAAGUCCUGUGCUACACAUCGUAUGUACCGAAUCGGGUGGGGUGGUGGAAAGUAUUAUGUUACGCCGUUCGGAUCUGCACUUCCAGUGGAAUUCUCGGGUGUCAAGG", "log2 enrichment": -0.508}
{"Oligonucleotide": "GGGAGUUCUACAGUCCGACGAUCUUAUGGAGUUUGGCCCUGAGGACAUGCUGCUGGGCAUGGAUGAGGCUGAAGAUGAUGAGGACCUGGAGGCUGAGCUGCUGGCUCUCACAGUGGAAUUCUCGGGUGUCAAGG", "log2 enrichment": -1.95}
{"data": "Set 2", "target": "Protein max, full length (MAX, Homo sapiens, UniProt P61244-2, residues 1-151)", "method": "protein-binding microarray", "form": "double-stranded DNA, one strand shown", "sample": "in vitro", "concentration": "not given", "notes": "k-mer, scored over probes, only values ≥0.25", "reading": "higher = stronger binding"}
{"Oligonucleotide": "ATCACGAG", "E-score": 0.418}
{"Oligonucleotide": "GCACGAGC", "E-score": 0.339}
{"Oligonucleotide": "ATATGGCC", "E-score": 0.274}
{"Oligonucleotide": "ACGAGGAA", "E-score": 0.339}
{"Oligonucleotide": "ACGTGCAA", "E-score": 0.418}
{"Oligonucleotide": "AGCGTGGA", "E-score": 0.4}
{"data": "Set 3", "target": "RNA binding protein fox-1 homolog 2, RRM domain, GST-SBP tag (RBFOX2, Homo sapiens, UniProt O43251-10, residues 100-194)", "method": "RNA Bind-n-Seq", "form": "RNA", "sample": "in vitro", "concentration": "365 nM", "notes": "natural RNA segment, single round, ends assumed", "reference": "no-protein control", "reading": "higher = stronger binding"}
{"Oligonucleotide": "GGGAGUUCUACAGUCCGACGAUCCACUGGGUUCUGCAGCACUGGAGUUUCCAUGACCGCUCCCACAUCACCCCACCCUCGACUCUGGCACCAGUAUGGUUCUAUGCAUGUUGCAGCUCUCUGGGCUGUGACUCUGGAAUUCUCGGGUGCCAA", "RBNS enrichment (R)": 0.604}
{"Oligonucleotide": "GGGAGUUCUACAGUCCGACGAUCGCAUGCUAGAUACGGAAGAACAGGAGCGCCAGACGCAGGCCGUCCUCCAAGCCGUUGCAGACAAAGUGAAAGAGGACUCCCAGGUGCCUGCAACCCAGACUCUGCAGAGAUGGAAUUCUCGGGUGCCAA", "RBNS enrichment (R)": 7.01}
{"Oligonucleotide": "GGGAGUUCUACAGUCCGACGAUCCCCUGGGGCAUGGGAGGGUUUCACAAAAUUGCCCACUUGUUAAGGACCCUGACUCUAAUACCACACAAAACAGAACAAAAAUCCAGCAAAGAUAGGAUCGGAGAUACCUGUGGAAUUCUCGGGUGCCAA", "RBNS enrichment (R)": 1.09}
{"Oligonucleotide": "GGGAGUUCUACAGUCCGACGAUCAUGCUUUUGACACUGUUUCUAGAAUUUUAAAGUUGAAAAAUGAUGAUAUAAUCCAGAAAUUGUUACUUCGGAGCAUGACAAUAGAUUUCUUUAACAAAGACUCAAGAUCAUGGAAUUCUCGGGUGCCAA", "RBNS enrichment (R)": 0.394}
{"data": "Other studies, line by line"}
{"Substance": "PhoQ, residues 284 288 289 292 302 303 WVSSAF", "target": "PhoP, residues 12 14 15 18 19 LHSVQ (Escherichia coli, UniProt P23836)", "test": "Sort-seq, measured: YFP reporter", "test system": "E. coli", "setting": "PhoQ-PhoP variant library, with: 10 µM Mg2+", "how to read": "reference: high Mg2+ state, higher = stronger signaling", "quantity": "fold induction", "result": 7.58}
